{"data": "Published values of several laboratories", "note": "A part holds a random share of what one study measured.", "chain of UniProt P9WI81 (whole entry, looked up)": "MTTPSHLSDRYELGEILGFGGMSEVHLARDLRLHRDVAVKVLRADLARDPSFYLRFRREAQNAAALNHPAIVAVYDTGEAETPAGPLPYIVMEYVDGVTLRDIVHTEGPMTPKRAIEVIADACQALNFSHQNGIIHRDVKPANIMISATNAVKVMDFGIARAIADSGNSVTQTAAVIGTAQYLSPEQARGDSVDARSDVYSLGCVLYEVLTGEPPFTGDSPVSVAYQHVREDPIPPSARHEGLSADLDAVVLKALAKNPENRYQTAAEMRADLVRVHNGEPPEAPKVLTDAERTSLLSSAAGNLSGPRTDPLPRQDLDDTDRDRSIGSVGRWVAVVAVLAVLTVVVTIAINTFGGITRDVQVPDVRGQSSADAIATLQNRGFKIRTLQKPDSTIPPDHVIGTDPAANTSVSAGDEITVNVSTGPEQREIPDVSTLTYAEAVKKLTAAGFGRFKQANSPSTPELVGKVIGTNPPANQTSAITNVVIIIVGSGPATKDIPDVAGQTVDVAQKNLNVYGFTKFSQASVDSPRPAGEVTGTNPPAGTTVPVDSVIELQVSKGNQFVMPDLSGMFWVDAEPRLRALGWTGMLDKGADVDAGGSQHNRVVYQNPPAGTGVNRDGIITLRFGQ", "chain of UniProt P60842 (whole entry, looked up)": "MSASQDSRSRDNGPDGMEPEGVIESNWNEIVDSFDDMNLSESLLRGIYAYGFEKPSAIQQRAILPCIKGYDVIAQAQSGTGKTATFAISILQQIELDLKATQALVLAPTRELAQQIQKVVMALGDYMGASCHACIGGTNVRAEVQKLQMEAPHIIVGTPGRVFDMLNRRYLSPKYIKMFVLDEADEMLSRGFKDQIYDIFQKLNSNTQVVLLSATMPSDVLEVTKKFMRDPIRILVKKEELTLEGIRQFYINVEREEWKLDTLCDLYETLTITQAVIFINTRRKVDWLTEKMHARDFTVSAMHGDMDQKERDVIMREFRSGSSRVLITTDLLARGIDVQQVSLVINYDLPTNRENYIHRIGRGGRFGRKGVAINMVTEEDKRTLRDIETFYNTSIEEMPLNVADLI", "chain of UniProt P28221 (whole entry, looked up)": "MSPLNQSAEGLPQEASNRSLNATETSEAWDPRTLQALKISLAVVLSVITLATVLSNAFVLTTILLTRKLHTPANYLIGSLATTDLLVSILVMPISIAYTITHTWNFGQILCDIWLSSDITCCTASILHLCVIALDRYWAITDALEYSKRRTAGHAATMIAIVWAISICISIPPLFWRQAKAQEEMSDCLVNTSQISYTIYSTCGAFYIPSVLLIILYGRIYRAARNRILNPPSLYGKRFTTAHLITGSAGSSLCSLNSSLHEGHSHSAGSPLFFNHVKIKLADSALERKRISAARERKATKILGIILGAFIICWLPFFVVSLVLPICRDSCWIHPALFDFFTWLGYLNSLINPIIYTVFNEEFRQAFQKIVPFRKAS", "chain of UniProt P62344 (whole entry, looked up)": "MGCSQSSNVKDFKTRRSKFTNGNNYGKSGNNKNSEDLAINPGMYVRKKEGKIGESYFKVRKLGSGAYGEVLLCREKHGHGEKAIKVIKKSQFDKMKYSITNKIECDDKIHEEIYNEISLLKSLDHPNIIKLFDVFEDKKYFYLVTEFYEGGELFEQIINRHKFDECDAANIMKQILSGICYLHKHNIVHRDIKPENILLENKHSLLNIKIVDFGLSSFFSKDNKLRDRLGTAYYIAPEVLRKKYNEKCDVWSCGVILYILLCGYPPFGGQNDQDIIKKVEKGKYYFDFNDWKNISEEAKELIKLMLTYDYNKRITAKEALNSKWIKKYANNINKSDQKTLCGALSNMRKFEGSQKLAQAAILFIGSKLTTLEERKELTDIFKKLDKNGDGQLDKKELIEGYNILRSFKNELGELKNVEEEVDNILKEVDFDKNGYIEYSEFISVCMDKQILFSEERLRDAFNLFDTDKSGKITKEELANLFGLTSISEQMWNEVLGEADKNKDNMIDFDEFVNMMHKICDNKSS", "chain of UniProt P28335 (whole entry, looked up)": "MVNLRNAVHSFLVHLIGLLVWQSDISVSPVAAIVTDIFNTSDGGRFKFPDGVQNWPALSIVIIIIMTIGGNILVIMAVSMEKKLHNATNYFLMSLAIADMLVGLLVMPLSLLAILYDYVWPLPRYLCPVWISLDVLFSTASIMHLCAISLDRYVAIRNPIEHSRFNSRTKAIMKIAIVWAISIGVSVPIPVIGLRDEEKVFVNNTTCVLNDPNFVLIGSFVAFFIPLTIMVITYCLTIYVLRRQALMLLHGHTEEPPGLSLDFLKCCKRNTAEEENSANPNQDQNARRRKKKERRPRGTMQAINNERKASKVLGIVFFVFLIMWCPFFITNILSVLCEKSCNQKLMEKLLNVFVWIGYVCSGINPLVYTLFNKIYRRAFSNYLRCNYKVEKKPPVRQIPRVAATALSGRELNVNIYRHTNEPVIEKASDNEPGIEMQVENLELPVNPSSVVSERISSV"}
{"data": "Sample 1", "target": "Synaptic vesicular amine transporter (SLC18A2, Homo sapiens, UniProt Q05940)", "mode": "inhibitor", "notes": "literature data", "chain of UniProt Q05940 (whole entry, looked up)": "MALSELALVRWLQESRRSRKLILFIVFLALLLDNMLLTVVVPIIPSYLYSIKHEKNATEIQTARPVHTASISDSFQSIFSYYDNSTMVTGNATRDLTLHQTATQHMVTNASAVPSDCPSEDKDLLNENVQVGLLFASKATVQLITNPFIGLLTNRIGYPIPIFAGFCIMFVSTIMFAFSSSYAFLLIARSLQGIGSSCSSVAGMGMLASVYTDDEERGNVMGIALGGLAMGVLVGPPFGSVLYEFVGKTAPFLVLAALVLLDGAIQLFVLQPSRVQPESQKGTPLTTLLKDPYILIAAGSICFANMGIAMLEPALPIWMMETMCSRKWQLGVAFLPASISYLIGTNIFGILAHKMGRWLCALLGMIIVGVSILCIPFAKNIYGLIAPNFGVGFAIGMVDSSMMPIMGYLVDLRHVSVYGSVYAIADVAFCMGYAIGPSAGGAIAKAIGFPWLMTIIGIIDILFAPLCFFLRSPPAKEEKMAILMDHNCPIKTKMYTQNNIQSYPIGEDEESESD"}
{"SMILES": "NCC1(CC(=O)O)CCCCC1", "IC50": "> 10 µM"}
{"SMILES": "CCC1(c2ccccc2)C(=O)NC(=O)NC1=O", "IC50": "> 10 µM"}
{"SMILES": "C[C@@H](O)[C@@H]1NC(=O)[C@H](CCCCN)NC(=O)[C@@H](Cc2c[nH]c3ccccc23)NC(=O)[C@H](Cc2ccccc2)NC(=O)[C@@H](NC(=O)[C@H](N)Cc2ccccc2)CSSC[C@@H](C(=O)N[C@H](CO)[C@@H](C)O)NC1=O", "IC50": "> 10 µM"}
{"SMILES": "CNC1(c2ccccc2Cl)CCCCC1=O (stereo not shown)", "IC50": "> 10 µM"}
{"SMILES": "CN1CCC(C(=O)c2cccc(NC(=O)c3c(F)cc(F)cc3F)n2)CC1", "IC50": "> 10 µM"}
{"SMILES": "CN1CC[C@]23c4c5ccc(O)c4O[C@H]2[C@@H](O)C=C[C@H]3[C@H]1C5", "IC50": "> 10 µM"}
{"data": "Sample 2", "target": "Bromodomain-containing protein 4, BD1 (BRD4, Homo sapiens, UniProt O60885)", "observed": "acetyl-histone H4 peptide binding", "method": "AlphaScreen displacement", "concentration": "50 µM"}
{"Compound": "N#CC(C#N)=Cc1ccc(O)c(O)c1", "inhibition [%]": 18.5}
{"Compound": "COc1ccc(N2C(=O)NC(=O)C(=CNc3cccc(C)c3)C2=O)cc1", "inhibition [%]": 10}
{"Compound": "O=C1Nc2ccccc2C1=Cc1c[nH]cn1", "inhibition [%]": 19.9}
{"Compound": "Cc1cccc(NC=C2C(=O)NC(=O)N(c3ccc(F)cc3)C2=O)c1", "inhibition [%]": 16.9}
{"Compound": "Cc1cccc(N2C(=O)NC(=O)C(=CNc3ccc(Cl)cc3)C2=O)c1", "inhibition [%]": 11.2}
{"Compound": "Cc1cccc(NC=C2C(=O)NC(=O)N(c3ccccc3)C2=O)c1", "inhibition [%]": 21.1}
{"Compound": "COc1cccc(N2C(=O)NC(=O)C(=CNc3cccc(Cl)c3)C2=O)c1", "inhibition [%]": 18.6}
{"Compound": "O=C1NC(=O)c2c1c1c3ccccc3n3c1c1c2c2ccccc2n1[C@@H]1CCC3O1", "inhibition [%]": -15.8}
{"data": "Single results of other studies"}
{"Compound": "O=C(O)[C@@H]1[C@@H](Cn2nnc3ccccc3c2=O)CC[C@H]1C(=O)c1ccc(OCCC2CCOCC2)cc1", "target": "HTR2C (Homo sapiens, UniProt P28335)", "assay": "binding, radioligand binding", "setting": "10 µM", "measurement": "inhibition", "result": "21%"}
{"Compound": "COc1ccc([C@@]23Oc4cc(OC)cc(OC)c4[C@]2(O)[C@H](O)C[C@H]3c2ccccc2)cc1", "target": "EIF4A1 (Homo sapiens, UniProt P60842)", "assay": "RNA clamping, fluorescence polarization", "setting": "concentration not given, mean of two replicates, with: FAM-labelled poly r(AG)8 RNA", "measurement": "fluorescence polarization change", "result": "71.3 mP"}
{"Compound": "CNC(=N)NCCC[C@H](NC(=O)[C@H](CC(C)C)NC(=O)NNC(=O)[C@H](Cc1ccccc1)NC(=O)[C@H](CO)NC(=O)[C@H](CC(N)=O)NC(=O)[C@@H](Cc1cccnc1)NC(=O)[C@H](N)Cc1ccc(O)cc1)C(=O)NCC(N)=O", "target": "HTR1D (Homo sapiens, UniProt P28221)", "assay": "ligand displacement, radioligand", "setting": "10 µM", "measurement": "inhibition", "result": "12.4%"}
{"Compound": "CO[C@H]1CC[C@H](CNc2ccc(S(=O)(=O)NC(=O)c3ccc(N4CCN(CC5=C(c6ccc(Cl)cc6)CC(C)(C)CC5)CC4)cc3Oc3cnc4[nH]ccc4c3)cc2[N+](=O)[O-])CC1", "target": "pknB (Mycobacterium tuberculosis, UniProt P9WI81)", "assay": "cell-free assay, competition with immobilised ligand", "setting": "1 µM", "measurement": "remaining binding", "result": "86%"}
{"Compound": "CN1CCN(c2cnc3c(C4CCN(C(=O)c5ccc(OC(F)(F)F)cc5N)CC4)ncnc3c2)CC1", "target": "CDPK1 (Plasmodium falciparum, UniProt P62344)", "assay": "cell-free assay, competition with immobilised ligand", "setting": "1 µM", "measurement": "remaining binding", "result": "100%"}
